# Published values gathered from unrelated publications.
# Lines come from different studies, so protocols differ. ± gives the spread as reported.
# Chain of UniProt P42338 (whole entry, looked up): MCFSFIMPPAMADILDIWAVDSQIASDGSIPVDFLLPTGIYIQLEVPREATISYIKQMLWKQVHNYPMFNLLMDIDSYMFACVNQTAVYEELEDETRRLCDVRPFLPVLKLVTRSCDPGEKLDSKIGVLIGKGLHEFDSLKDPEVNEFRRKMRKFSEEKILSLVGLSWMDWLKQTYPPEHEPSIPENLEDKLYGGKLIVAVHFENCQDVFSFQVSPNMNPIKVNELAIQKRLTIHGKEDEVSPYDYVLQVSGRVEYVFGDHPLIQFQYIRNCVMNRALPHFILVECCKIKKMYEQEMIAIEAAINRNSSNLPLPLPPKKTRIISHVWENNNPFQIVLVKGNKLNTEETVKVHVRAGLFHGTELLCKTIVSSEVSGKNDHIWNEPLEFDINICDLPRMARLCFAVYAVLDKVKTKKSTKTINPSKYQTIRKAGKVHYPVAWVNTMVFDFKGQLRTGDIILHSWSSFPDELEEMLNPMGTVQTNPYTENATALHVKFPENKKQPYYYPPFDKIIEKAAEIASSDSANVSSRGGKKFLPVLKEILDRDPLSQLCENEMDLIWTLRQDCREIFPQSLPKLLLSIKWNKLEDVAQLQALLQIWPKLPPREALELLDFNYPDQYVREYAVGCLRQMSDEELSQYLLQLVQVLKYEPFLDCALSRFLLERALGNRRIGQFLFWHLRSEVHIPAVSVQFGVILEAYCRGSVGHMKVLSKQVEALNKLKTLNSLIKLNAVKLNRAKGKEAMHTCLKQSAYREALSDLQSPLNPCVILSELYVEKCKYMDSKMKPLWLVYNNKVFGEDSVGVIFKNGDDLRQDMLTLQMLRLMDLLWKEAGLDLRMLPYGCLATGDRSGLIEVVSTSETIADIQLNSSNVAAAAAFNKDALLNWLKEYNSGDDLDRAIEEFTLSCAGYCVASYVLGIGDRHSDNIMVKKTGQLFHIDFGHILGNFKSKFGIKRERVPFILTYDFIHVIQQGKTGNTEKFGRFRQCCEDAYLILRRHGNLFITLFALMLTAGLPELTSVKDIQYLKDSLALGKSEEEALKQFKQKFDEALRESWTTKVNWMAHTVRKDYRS
Compound,target or system,assay,system,conditions,how to read,measurement,value
COc1cc(O)cc(O)c1C(=O)/C=C/c1ccccc1,Human immunodeficiency virus 1,"viral replication, inhibitor, luciferase",MT2,48 h,,IC50,70600 nM
CNCc1ccc2c(c1)N(C(=O)OCc1c(F)c(F)c(F)c(F)c1F)[C@H](CNC(=N)N)[C@H]2NC(=O)C(=O)Nc1ccc(Cl)c(F)c1,Human immunodeficiency virus 1,"viral infection, Env pseudovirus","TZM-bl, CAP210.2.00.E8 clade C",,,IC50,958 nM
CC(=O)NCCN(CC(=O)NCCN(CC(=O)NCCN(CC(=O)NCCC(N)=O)C(=O)C[C@@H](N)CCCNC(=N)N)C(=O)C[C@@H](N)Cc1ccccc1)C(=O)C[C@@H](N)Cc1ccccc1,HIV-1 TAR RNA,,,"concentration not given, 25 °C",,binding entropy term TΔS°,2.01 ± 0.12 kcal/mol
C=C1C[C@](OC)([C@H](O)C(=O)NC[C@@H]2C[C@@H](OC)C(C)(C)[C@@H](C[C@@H](COC)OC)O2)O[C@H](C)[C@@H]1C,RAW264.7,"cell viability, sulforhodamine B",,"48 h, 37 °C, added: 100 µM H2O2",,IC50,1.7 ± 0.1 nM
F[P-](F)(F)(F)(F)F.OC(Cn1cncn1)(Cn1cc(-[c-]2cccc2)nn1)c1ccc(F)cc1F.[Co+3].c1cc[cH-]c1 (racemic),Brugia pahangi,"motility, Worminator",adult female,"50 µM, 1 d",,inhibition,20%
CCCOC(=O)N1c2cc(CNC)ccc2[C@H](NC(=O)C(=O)Nc2ccc(Cl)c(F)c2)[C@H]1CNC(=N)N,HIV-1,"pseudovirus infection, Env pseudovirus neutralisation","TZM-bl, clade A",,,IC50,2620 nM
C[C@H](Nc1ncnc(N)c1C#N)c1c(-c2ccccc2)[nH]c2c(Cl)cccc2c1=O,"Phosphatidylinositol 4,5-bisphosphate 3-kinase catalytic subunit beta isoform (PIK3CB, Homo sapiens, UniProt P42338)",AKT phosphorylation,PC-3,added: LPA,relative to: IC50 PIK3CB over PI3Kδ,selectivity ratio,137 fold
N#Cc1ccc2cccc(O)c2n1,Corynebacterium diphtheriae,agar dilution,NCTC 10356,,,MIC,> 1500 µM
CC(=O)NCCN(CC(=O)NCCN(CC(=O)NCCN(CC(=O)NCCC(N)=O)C(=O)[C@@H](N)CCCNC(=N)N)C(=O)[C@@H](N)CCCNC(=N)N)C(=O)[C@@H](N)Cc1ccccc1,HIV-1 TAR RNA,,,"concentration not given, 25 °C",,binding entropy term TΔS°,-5.81 ± 0.12 kcal/mol
O=[N+]([O-])c1cccc(S(=O)(=O)NC[C@@H](O)[C@@H]2CCc3cc(F)ccc3O2)c1,Aspergillus niger,poison plate technique,,,,MIC,14.1 ± 0.72 µg/mL
CNCc1ccc2c(c1)C[C@H](CNC(=N)N)[C@H]2NC(=O)C(=O)Nc1ccc(Cl)c(F)c1,Human immunodeficiency virus 1,"viral infection, Env pseudovirus","TZM-bl, X1632_S2_B10 clade G",,,IC80,79800 nM
Oc1c(Br)ccc2cccnc12,Corynebacterium diphtheriae,agar dilution,NCTC 10356,,,MIC,35.7 µM
CO[C@H]1O[C@H](COC(c2ccccc2)(c2ccccc2)c2ccccc2)[C@@H](OS(=O)(=O)c2ccccc2)[C@H](OS(=O)(=O)c2ccccc2)[C@H]1OS(=O)(=O)c1ccccc1,Aspergillus flavus,"mycelial growth, poisoned food technique",,"20 µg/µL, DMSO",,inhibition,66.46 ± 0.3%

# Repeated from above:
Compound,target or system,assay,system,conditions,how to read,measurement,value
C=C1C[C@](OC)([C@H](O)C(=O)NC[C@@H]2C[C@@H](OC)C(C)(C)[C@@H](C[C@@H](COC)OC)O2)O[C@H](C)[C@@H]1C,RAW264.7,"cell viability, sulforhodamine B",,"48 h, 37 °C, added: 100 µM H2O2",,IC50,1.7 ± 0.1 nM
